Measured values pooled from the literature.
“And” joins repeats or separate records; there may be more than shown.
B1: VCL head domain 1; chain MPVFHTRTIESILEPVAQQISHLVIMHEEGEVDGKAIPDLTAPVSAVQAAVSNLVRVGKETVQTTEDQILKRDMPPAFIKVENACTKLVRAAQMLQADPYSVPARDYLIDGSRGILSGTSDLLLTFDEAEVRKIIRVCKGILEYLTVAEVVETMEDLVTYTKNLGPGMTKMAKMIDERQQELTHQEHRVMLVNSMNTVKELLPVLISAMKIFVTTKNTKSQGIEEALKNRNFTVEKMSAEINEIIRVLQLTSWDEDAW
B2: erenumab; V domains shown; sequence looked up; VH QVQLVESGGGVVQPGRSLRLSCAASGFTFSSFGMHWVRQAPGKGLEWVAVISFDGSIKYSVDSVKGRFTISRDNSKNTLFLQMNSLRAEDTAVYYCARDRLNYYDSSGYYHYKYYGMAVWGQGTTVTVSS; VL QSVLTQPPSVSAAPGQKVTISCSGSSSNIGNNYVSWYQQLPGTAPKLLIYDNNKRPSGIPDRFSGSKSGTSTTLGITGLQTGDEADYYCGTWDSRLSAVVFGGGTKLTVL
B3: CXCL9 (UniProt Q07325); chain TPVVRKGRCSCISTNQGTIHLQSLKDLKQFAPSPSCEKIEIIATLKNGVQTCLNPDSADVKELIKKWEKQVSQKKKQKNGKKHQKKKVLKVRKSQRSRQKKTT
Sequence of UniProt Q64331 (whole entry, looked up): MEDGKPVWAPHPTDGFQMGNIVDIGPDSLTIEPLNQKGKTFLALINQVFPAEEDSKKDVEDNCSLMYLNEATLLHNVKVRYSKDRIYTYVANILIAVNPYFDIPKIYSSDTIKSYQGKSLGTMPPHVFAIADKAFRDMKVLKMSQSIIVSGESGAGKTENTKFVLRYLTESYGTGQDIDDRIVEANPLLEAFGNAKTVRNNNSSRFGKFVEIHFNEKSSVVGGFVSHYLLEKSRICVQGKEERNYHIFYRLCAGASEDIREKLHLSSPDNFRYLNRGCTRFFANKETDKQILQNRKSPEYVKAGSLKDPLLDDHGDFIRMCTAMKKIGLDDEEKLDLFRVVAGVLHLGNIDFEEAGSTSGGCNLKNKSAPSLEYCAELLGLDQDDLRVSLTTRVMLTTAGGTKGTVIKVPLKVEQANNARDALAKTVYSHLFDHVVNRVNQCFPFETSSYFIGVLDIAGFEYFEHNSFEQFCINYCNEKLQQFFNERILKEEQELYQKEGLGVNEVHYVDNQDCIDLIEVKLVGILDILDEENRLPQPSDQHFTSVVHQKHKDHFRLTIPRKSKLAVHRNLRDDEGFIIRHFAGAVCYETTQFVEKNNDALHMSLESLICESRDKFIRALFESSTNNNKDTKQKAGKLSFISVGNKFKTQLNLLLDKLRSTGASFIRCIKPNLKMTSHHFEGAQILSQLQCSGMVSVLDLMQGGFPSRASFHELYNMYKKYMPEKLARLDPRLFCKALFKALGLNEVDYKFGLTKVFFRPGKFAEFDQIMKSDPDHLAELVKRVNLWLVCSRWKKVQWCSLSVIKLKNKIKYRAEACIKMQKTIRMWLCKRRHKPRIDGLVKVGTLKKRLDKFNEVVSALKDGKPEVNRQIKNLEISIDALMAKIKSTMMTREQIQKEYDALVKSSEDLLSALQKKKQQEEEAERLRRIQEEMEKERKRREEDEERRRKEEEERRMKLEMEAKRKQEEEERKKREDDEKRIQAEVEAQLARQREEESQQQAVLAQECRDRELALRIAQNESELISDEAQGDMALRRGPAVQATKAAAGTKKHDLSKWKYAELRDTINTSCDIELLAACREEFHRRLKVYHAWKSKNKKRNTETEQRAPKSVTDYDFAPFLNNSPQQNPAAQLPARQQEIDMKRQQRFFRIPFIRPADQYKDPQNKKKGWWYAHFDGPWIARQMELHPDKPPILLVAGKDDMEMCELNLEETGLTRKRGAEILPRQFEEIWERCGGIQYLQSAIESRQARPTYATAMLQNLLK
Sequence of UniProt O60656 (whole entry, looked up): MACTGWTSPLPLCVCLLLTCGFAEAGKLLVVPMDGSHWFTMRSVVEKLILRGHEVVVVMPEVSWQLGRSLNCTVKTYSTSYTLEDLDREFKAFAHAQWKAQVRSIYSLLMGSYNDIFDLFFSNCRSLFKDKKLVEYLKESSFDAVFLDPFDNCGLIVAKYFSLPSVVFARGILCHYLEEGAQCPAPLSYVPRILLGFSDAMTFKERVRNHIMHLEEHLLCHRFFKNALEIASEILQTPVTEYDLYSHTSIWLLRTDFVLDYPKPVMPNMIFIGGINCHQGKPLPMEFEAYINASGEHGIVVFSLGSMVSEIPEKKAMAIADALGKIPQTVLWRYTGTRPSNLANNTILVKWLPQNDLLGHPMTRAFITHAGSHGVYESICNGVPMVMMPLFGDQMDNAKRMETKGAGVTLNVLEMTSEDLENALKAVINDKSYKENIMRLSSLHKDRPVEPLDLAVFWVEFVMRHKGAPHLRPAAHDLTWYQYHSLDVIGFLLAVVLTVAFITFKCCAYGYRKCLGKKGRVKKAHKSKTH
Sequence of UniProt P26039 (whole entry, looked up): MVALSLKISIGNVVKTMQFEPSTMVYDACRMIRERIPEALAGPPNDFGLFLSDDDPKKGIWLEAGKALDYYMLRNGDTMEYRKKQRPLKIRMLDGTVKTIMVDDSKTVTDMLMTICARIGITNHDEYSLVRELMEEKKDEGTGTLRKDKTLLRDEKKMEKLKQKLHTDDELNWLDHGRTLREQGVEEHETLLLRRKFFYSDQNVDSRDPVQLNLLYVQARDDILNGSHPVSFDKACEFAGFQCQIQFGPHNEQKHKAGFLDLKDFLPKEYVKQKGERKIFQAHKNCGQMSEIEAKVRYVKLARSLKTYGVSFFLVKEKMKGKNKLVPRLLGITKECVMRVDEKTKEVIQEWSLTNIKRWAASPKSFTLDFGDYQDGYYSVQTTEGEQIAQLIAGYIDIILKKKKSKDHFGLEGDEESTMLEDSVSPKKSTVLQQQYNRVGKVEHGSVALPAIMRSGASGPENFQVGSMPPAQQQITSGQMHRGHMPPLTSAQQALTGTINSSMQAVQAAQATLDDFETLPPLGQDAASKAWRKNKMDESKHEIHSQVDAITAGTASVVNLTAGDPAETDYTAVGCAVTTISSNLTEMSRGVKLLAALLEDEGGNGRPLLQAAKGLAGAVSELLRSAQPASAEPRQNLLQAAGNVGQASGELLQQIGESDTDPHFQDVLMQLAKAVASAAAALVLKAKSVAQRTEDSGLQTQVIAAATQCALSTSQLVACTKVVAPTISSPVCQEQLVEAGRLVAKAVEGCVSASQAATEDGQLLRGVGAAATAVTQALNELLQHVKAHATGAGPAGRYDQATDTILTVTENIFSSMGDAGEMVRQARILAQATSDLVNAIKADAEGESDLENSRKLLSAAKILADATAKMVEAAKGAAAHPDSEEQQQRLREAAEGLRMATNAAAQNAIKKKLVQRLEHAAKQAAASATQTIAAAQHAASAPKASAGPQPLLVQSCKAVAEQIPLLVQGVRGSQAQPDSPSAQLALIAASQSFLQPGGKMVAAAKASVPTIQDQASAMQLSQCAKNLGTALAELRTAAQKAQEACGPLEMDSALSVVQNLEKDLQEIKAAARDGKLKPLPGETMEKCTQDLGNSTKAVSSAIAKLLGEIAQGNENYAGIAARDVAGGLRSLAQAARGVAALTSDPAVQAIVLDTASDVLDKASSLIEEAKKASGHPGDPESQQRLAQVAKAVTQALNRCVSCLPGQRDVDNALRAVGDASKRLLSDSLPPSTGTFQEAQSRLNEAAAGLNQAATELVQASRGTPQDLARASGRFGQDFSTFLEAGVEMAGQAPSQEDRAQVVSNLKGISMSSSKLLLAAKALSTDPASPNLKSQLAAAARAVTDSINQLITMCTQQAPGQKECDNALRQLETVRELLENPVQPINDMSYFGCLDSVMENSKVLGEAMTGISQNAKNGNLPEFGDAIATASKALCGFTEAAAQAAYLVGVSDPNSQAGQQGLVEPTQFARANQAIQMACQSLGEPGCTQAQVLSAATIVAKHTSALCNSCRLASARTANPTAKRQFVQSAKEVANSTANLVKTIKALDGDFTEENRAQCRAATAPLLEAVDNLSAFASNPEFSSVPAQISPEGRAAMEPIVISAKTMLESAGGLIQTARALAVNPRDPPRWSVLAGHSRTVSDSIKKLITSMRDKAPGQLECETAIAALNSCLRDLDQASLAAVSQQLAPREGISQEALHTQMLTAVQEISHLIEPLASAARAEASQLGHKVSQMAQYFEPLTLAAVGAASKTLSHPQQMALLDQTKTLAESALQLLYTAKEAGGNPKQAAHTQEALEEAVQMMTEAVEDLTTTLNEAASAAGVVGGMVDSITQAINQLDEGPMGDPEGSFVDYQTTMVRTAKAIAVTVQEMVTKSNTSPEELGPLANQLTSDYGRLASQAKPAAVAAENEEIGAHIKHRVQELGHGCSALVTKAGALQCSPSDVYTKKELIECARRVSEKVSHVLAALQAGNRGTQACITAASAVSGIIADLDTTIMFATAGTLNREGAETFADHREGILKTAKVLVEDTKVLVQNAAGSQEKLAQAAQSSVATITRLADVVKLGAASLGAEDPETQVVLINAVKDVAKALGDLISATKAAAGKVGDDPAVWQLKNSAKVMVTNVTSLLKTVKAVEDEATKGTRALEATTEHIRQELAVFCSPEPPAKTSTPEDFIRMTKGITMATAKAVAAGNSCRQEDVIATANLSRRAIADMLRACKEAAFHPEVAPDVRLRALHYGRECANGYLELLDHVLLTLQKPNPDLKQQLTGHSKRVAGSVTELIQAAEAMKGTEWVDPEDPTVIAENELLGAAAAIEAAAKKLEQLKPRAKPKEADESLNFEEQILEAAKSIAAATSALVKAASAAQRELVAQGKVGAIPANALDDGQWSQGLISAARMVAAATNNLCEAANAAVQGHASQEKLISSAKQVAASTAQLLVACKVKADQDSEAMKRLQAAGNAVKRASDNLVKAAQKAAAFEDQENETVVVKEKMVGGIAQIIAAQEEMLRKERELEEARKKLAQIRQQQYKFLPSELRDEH
Sequence of UniProt P06730 (whole entry, looked up): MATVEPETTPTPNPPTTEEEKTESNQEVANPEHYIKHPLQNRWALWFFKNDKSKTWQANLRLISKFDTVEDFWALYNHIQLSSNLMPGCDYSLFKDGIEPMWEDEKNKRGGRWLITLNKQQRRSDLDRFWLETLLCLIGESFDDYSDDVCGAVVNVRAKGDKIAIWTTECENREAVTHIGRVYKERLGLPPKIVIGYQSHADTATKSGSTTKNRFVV
Sequence of UniProt Q14242 (whole entry, unmodified, looked up): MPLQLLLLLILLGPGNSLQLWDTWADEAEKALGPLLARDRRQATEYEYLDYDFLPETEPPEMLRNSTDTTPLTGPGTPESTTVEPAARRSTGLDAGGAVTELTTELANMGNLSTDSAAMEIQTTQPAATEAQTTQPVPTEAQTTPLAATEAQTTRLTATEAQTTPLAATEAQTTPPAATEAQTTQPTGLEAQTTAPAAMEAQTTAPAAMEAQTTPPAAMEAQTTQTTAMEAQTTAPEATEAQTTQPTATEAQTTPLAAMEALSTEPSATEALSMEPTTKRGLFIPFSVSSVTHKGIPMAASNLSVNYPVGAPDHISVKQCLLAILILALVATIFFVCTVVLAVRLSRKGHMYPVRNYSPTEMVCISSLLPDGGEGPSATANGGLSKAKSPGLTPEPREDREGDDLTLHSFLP

With `B1 (VCL head domain 1)` the koff was 0.009 s⁻¹ (CTNNA3 M1-M3 259-667 (UniProt Q65CL1); magnetic tweezers force-jump).
For `Dync1i1 (Mus musculus, UniProt O88485)`, the relative coprecipitation was 0.87 (Myo6 (Mus musculus, UniProt Q64331); co-IP; brain lysate, muskelin knockout; relative to: myosin VI immunoprecipitation, higher = more coprecipitation).
For `UGT1A9 (Homo sapiens, UniProt O60656)`, the Vmax was 0.00588 µmol/min/mg (COc1cc(-c2oc3cc(O)ccc3c(=O)c2O)ccc1O; steady-state kinetics; pH 7.4, 37 °C).
For `IGF2 (Homo sapiens, UniProt P01344)`, “neurite length per neuron” read 152 um (IGF1R (Gallus gallus); neurite growth; embryonic spinal motoneurons; 0.1-10 nM; relative to: no hormone, higher = longer).
For `MT-CO3 (Bos taurus, UniProt P00415)`, “urea midpoint for subunit dissociation” read 4.8 M (cytochrome c oxidase eight-subunit core (Bos taurus, UniProt P00396); anion exchange chromatography, RP-HPLC, SDS-PAGE; 10 min, pH 7.2, room temperature, apparent, single transition fit).
The pA2 of `B2 (erenumab)` is reported as 5.34 (CALCR/RAMP1 on cells (Homo sapiens); cAMP production, antagonist; antibody, HEK293S; one erenumab concentration, added: calcitonin).
For `PTH fragment, C-terminal amide (Homo sapiens)`, the cAMP production was 0.58 nM (PTH1R (Homo sapiens, UniProt Q03431); cAMP; HEK293; EC50).
The association response of `ribosomes whole ribosome (Rattus norvegicus)` is reported as 105 RU (CRIP3 active 22-286 del163-164/del167-189 (Zea mays, UniProt P28522); SPR; 60 nM).
`B3 (CXCL9)` has a LogEC50 of -7.9 (CXCR3 (Homo sapiens, UniProt P49682); inhibition of forskolin-raised cAMP, agonist; HEK293).
`SELL (Homo sapiens, UniProt P14151)` — result for “mean rolling velocity”: 226 µm/s (SELPLG 42-320 (Homo sapiens, UniProt Q14242); cell rolling; Jurkat; untreated cells; higher = faster rolling).
The IC50 of `bradykinin` is reported as 6.8 µM and 5.37 µM and 6 µM and 6.3 µM and 7.2 µM and 5.7 µM (OppA (Lactococcus lactis); fluorescence polarisation).
The relative pulldown of `Vcl (Mus musculus, UniProt Q64727)` is reported as > 2 fold (Tln1 482-786, SNAP, HaloTag, DNA tethers (Mus musculus, UniProt P26039); pull-down; lysate; relative to: either spring alone, higher = more molecule pulled down).
For `BACH1 BTB domain C34A, S-nitrosylation treated (Homo sapiens) (sequence not shown)`, binding read “binds” (FBXL17/SKP1 FBXL17 310-701 (Homo sapiens); BLI; apparent).
Under “p53 protein level”, `RBM38 Pep8` is recorded as 1.8 fold (EIF4E (Homo sapiens, UniProt P06730); immunoblot; RKO; 2.5 µM, 18 h; relative to: untreated, higher = more p53).

For quick reference, copied from above:
`SELL (Homo sapiens, UniProt P14151)` — result for “mean rolling velocity”: 226 µm/s (SELPLG 42-320 (Homo sapiens, UniProt Q14242); cell rolling; Jurkat; untreated cells; higher = faster rolling).
The IC50 of `bradykinin` is reported as 6.8 µM and 5.37 µM and 6 µM and 6.3 µM and 7.2 µM and 5.7 µM (OppA (Lactococcus lactis); fluorescence polarisation).
